Published values pooled from the literature.
Compare with care: the assays were run in different laboratories. Several values in a cell are separate wells, animals, samples, runs or records. ± marks the error that the study gave.

| SMILES | test | system | conditions | scale | endpoint | value |
| --- | --- | --- | --- | --- | --- | --- |
| CSCCN(CCSC)CCc1ccccn1 | potentiometric or spectrophotometric titration | water, 0.1 M KCl | 25 °C | – | logK(H2) | 3.23 |
| Cc1[nH]c(/C=C2\C(=O)Nc3ccc(F)cc32)c(C)c1NC(=O)CCN1CCN(C)CC1 | – | dog plasma | 1.00 ng/mL nominal, three freeze-thaw cycles at -20 °C | – | measured concentration | 0.95 ng/mL |
| CCCCN1C(=O)c2cccc3c(NCCCN4CCOCC4)ccc(c23)C1=O | – | water | pH 6 | relative to: fluorescein/0.1 N NaOH | fluorescence quantum yield | 0.47 |
| N=C(N)NCCC[C@@H]1NC(=O)[C@H](Cc2c[nH]c3ccccc23)NC(=O)[C@@H](CC2CCCCC2)NC(=O)[C@@H]2CCCN2C(=O)[C@@H](NC(=O)CCc2ccccc2)CCCNC1=O | – | C57BL/6J mice, brain | oral, 1 mg/kg, two-compartment model | – | apparent total clearance (CL/F) | 0.75 ng/(min·ng/g) |
| CC(C)c1cnc(-c2cc(Cl)ccc2F)cc1Nc1ccncc1C(=O)NC(CO)CO | refers to: Diarrhea | solid tumour patients | oral, dose not given, phase I monotherapy | – | treatment-related adverse events | 7.1% |
| CCCC[C@H](NC(=O)[C@H](CC(C)C)N(C)C(=O)CNC(=O)[C@@H](NC(=O)[C@H](Cc1ccccc1)NC(=O)[C@H](CCCCN)NC(=O)[C@@H](N)CC(=O)O)C(C)C)C(N)=O | – | anesthetized Gottingen minipig | subcutaneous, 3 µg/kg | relative to: baseline | mean arterial pressure | -1.67 ± 2.95% |
| C=CC(=O)Nc1cc(Nc2nccc(-c3cn(C4CC4)c4ccccc34)n2)c(OC)cc1N(C)CCNC | LC-RAM/HRMS | human male, plasma | oral, 110 mg, 10 h | relative to: total radioactivity | share of radioactivity | 3.45% |
| CC(C)[C@H](NC(=O)[C@@H]1CCCN1C(=O)[C@H](CCCNC(=N)N)NC(=O)[C@H](CS)NC(=O)[C@H](Cc1c[nH]c2ccccc12)NC(=O)[C@H](CCCNC(=N)N)NC(=O)[C@@H](Cc1ccccc1)NC(=O)[C@H](Cc1c[nH]cn1)NC(=O)[C@H](CCC(=O)O)NC(=O)[C@H](CS)NC(=O)[C@H](CS)NC(=O)COCCOCCNC(=O)[C@@H]1CC(=O)N[C@@H](CCCNC(=N)N)C(=O)NCC(=O)N[C@@H](CC(=O)O)C(=O)N[C@H](Cc2ccc(O)cc2)C(=O)N1)C(N)=O [technetium-99m labelled] | – | nude mouse, M21 melanoma xenograft, skin | intravenous, 2 h | – | tissue uptake | 1.16 ± 0.38 %ID/g |
| COc1cc(OC)cc(C2=C3C(C)=C(I)C(/C=C/c4c[nH]c5ccccc45)=[N+]3[B-](F)(F)n3c(/C=C/c4c[nH]c5ccccc45)c(I)c(C)c32)c1 | – | dichloromethane | – | – | Stokes shift | 640 cm⁻¹ |
| O=C([O-])CN1CCN(CC(=O)[O-])CCN(CC(=O)NCC2CCC(C(=O)NC(Cc3ccc4ccccc4c3)C(=O)NCCCCC(NC(=O)NC(CCC(=O)O)C(=O)O)C(=O)O)CC2)CCN(CC(=O)[O-])CC1.[44Sc+3] (stereo not drawn) | PET/CT dosimetry, OLINDA/EXM | human, liver | – | – | residence time | 0.253 h and 0.067 h and 0.292 h |
| O=c1[nH]c(=O)n(C2OC(CO)C(O)C2O)cc1-n1nnc2c1CCC1C(CO)C1CC2 (mixture of isomers) | fluorescence lifetime | methanol | – | – | fractional contribution τ3 | 0.38% |
| N[C@@H]1CCCC[C@H]1N.O=C1[O][Pt]2([O]C1=O)[O]C(=O)C(=O)[O]2 | – | water | 24 h, 37 °C | – | decomposition | 10% |
| O=C(CCc1ccc(CNC(C(=O)OC2CCCC2)C2CCCCC2)cn1)NO (stereo not drawn) | – | human, plasma | oral, 10 mg single dose, geometric mean | – | AUC(0-t) | 32.3 ng·h/mL |
| CC1=C(/C=C/C(=O)N2CCN(C(N)=O)CC2)C(C)(C)CCC1 | – | male mouse, plasma | oral, 40 mg/kg, single dose | – | half-life | 1.12 h |
| CC1=CC(C)(C)N=C2C=CC(=O)C=C12 | LC-MS/MS | Holstein cattle, subcutaneous fat | oral in feed, 50 mg/kg complete feed ethoxyquin, 42 days | – | highest tissue residue | 14.1 ng/g |
| CCc1cc(Nc2nc(-c3ccc(-n4cnc(C)c4)c(F)c3)cs2)c(C)cc1C | – | human, plasma | oral, 100 mg, day 1, multiple dose, geometric mean | – | apparent clearance (CL/F) | 52700 mL/h |
| O=c1nc(NO)ccn1[C@@H]1O[C@H](CO)[C@@H](O)[C@H]1O | refers to: CYP3A4 | normal rat, liver | oral, 80 mg/kg twice daily, 5 days | relative to: untreated rats | protein level | 0.4 fold |
| CC(C)[C@H](NC(=O)[C@@H]1CCCN1C(=O)[C@H](CCCNC(=N)N)NC(=O)[C@H](CS)NC(=O)[C@H](Cc1c[nH]c2ccccc12)NC(=O)[C@H](CCCNC(=N)N)NC(=O)[C@@H](Cc1ccccc1)NC(=O)[C@H](Cc1c[nH]cn1)NC(=O)[C@H](CCC(=O)O)NC(=O)[C@H](CS)NC(=O)[C@H](CS)NC(=O)[C@@H]1CC(=O)N[C@@H](CCCNC(=N)N)C(=O)NCC(=O)N[C@@H](CC(=O)O)C(=O)N[C@H](Cc2ccc(O)cc2)C(=O)N1)C(N)=O [technetium-99m labelled] | – | C57 mouse, female, B16/F1 melanoma | intravenous, 0.037 MBq, 2 h | relative to: tumour over lung | tumour to tissue ratio | 10.5 |
| CCCC[C@H](NC(C)=O)C(=O)N[C@H]1CC(=O)NCCCC[C@@H](C(=O)N[C@@H](C(=O)N2CCC[C@@H]2C(N)=O)C(C)C)NC(=O)[C@H](Cc2c[nH]c3ccccc23)NC(=O)[C@H](CCCN=C(N)N)NC(=O)[C@@H](Cc2ccc3ccccc3c2)NC(=O)[C@@H]2CCCN2C1=O | – | healthy dogs, plasma | subcutaneous, 2.25 mg/kg per day, day 5, 1 h post-dose, median | – | plasma histamine | 14.4 ng/mL |
| O=[11C](OC(C(F)(F)F)C(F)(F)F)N1CCC(CNS(=O)(=O)c2ccc(Cl)cc2)CC1 | PET | Sprague-Dawley rat, brain | intravenous, 2 min | – | peak brain uptake | 1.7 SUV |
| Cn1c(=O)oc2ccc(-c3ccc(CC(C#N)NC(=O)C4CNCCCO4)c(F)c3)cc21 (stereo not drawn) | – | human | oral, 40 mg once daily, TEAE, multiple ascending dose | – | urine WBC positive incidence | 11.1% |
| COc1cc2c(cc1OC)CN(CCCCn1ccc3cc(OCC[18F])ccc31)C2 | – | ICR mice, male, stomach | intravenous, 120 min | – | uptake | 3.54 ± 0.74 %ID/organ |
| C#CCOc1ccc(/C=C2\SC(=O)N(CC(=O)NCc3ccccc3)C2=O)cc1 | inverse Kirkwood-Buff integrals | binary solvent mixture | concentration not given, 298.15 K, mole fraction x1 1.00 | – | correlation volume | 6200 cm³/mol |
| COCCOCCOCCOCCC(=O)NCc1cc(CNC(=O)CCOCCOCCOCCOC)cc(-c2cc3cc4nc(c(-c5ccc(CCC(=O)O)cc5)c5[nH]c(cc6nc(c(OC)c2[nH]3)CC6(C)C)cc5-c2cc(CNC(=O)CCOCCOCCOCCOC)cc(CNC(=O)CCOCCOCCOCCOC)c2)CC4(C)C)c1 | – | water with 5% DMF | room temperature | – | Qy emission maximum | 731 nm |
| CC[C@H](C)[C@@H]1NC(=O)[C@H](Cc2ccccc2)NC(=O)[C@@H](NC(=O)[C@H](CCCNC(=N)N)NC(=O)[C@H](Cc2ccccc2)NC(=O)[C@H](Cc2ccccc2)NC(=O)[C@H](CCCCN)NC(=O)[C@H](CO)NC(=O)[C@H](CC(C)C)NC(=O)[C@H](CCCNC(=N)N)NC(=O)[C@H](CCSC)NC(=O)[C@H](C)N)CCCNC(=O)NCC[C@@H](C(=O)N[C@@H](CCCNC(=N)N)C(=O)N[C@@H](CCCCN)C(=O)N[C@@H](CCCCN)C(=O)O)NC(=O)[C@H](CC(C)C)NC1=O | circular dichroism | 2.5 mM DPC | – | – | melting temperature | 66.2 °C |
| CC(C)(O)c1ncc([S@](N)(=O)=NC(=O)Nc2c3c(cc4c2CCC4)CCC3)s1 | – | healthy human volunteers, plasma | oral, 100 mg single dose, fasted, spray-dried dispersion | – | dose-normalised Cmax | 112 ng/mL/mg |
| COc1cc(-c2nc3ccccc3s2)cc(CN2CCN(CC(=O)O)CCN(CC(=O)O)CC2)c1O | UV-Vis pH titration | – | 25 °C, ionic strength 0.1 M NaCl | – | pKa4 | 11.8 |
| COC[C@@H](CC(C)C)NC(=O)c1ccc(CO)c(C)c1 | LC-MS | Sprague-Dawley rat, both sexes, rat liver microsomes | 10 µM of parent drug, 10 min, pH 7.4, together with: NADPH | relative to: parent drug at time zero | metabolite peak area | 28.5% |
| C[C@H]1CO[C@@H]2Cn3cc(C(=O)NCc4ccc(F)cc4F)c(=O)c(O[C@@H]4O[C@H](C(=O)O)[C@@H](O)[C@H](O)[C@H]4O)c3C(=O)N12 | – | humans UGT1A1 wild type | oral, 30 mg, 1 weeks after last dose | – | participants with quantifiable plasma drug | 54.3% |
| C=CC(=O)Nc1cc(Nc2nccc(-c3cn(C4CC4)c4ccccc34)n2)c(OC)cc1NC | radio-HPLC, co-eluting peaks pooled | human male, feces | oral, 110 mg, 0 to 240 h, sample holds 81.99% dose | relative to: sample radioactivity | share of radioactivity | 1.15% |

Excerpt of the above:
| SMILES | test | system | conditions | scale | endpoint | value |
| --- | --- | --- | --- | --- | --- | --- |
| COc1cc(OC)cc(C2=C3C(C)=C(I)C(/C=C/c4c[nH]c5ccccc45)=[N+]3[B-](F)(F)n3c(/C=C/c4c[nH]c5ccccc45)c(I)c(C)c32)c1 | – | dichloromethane | – | – | Stokes shift | 640 cm⁻¹ |
| O=C([O-])CN1CCN(CC(=O)[O-])CCN(CC(=O)NCC2CCC(C(=O)NC(Cc3ccc4ccccc4c3)C(=O)NCCCCC(NC(=O)NC(CCC(=O)O)C(=O)O)C(=O)O)CC2)CCN(CC(=O)[O-])CC1.[44Sc+3] (stereo not drawn) | PET/CT dosimetry, OLINDA/EXM | human, liver | – | – | residence time | 0.253 h and 0.067 h and 0.292 h |
| O=c1[nH]c(=O)n(C2OC(CO)C(O)C2O)cc1-n1nnc2c1CCC1C(CO)C1CC2 (mixture of isomers) | fluorescence lifetime | methanol | – | – | fractional contribution τ3 | 0.38% |
